# Published values gathered from unrelated publications.
# ± marks the error that the study gave.
# Cell line: MIA PaCa-2
SMILES,assay,setting,measurement,result
COc1cnc2cccc(N3CCc4c(cc(Cn5ccnc5C)cc4-c4cn(C)nc4C(F)(F)F)C3=O)c2c1,cell growth,120 h,EC50,1440 nM
COc1ccc(NC(=O)c2cccc(-c3nc(NC(P(=O)(O)O)P(=O)(O)O)c4ccsc4n3)c2)cc1F,"Rap1A prenylation, inhibitor, Western blot",,lowest effective concentration,≤ 100 nM
O=c1[nH]cc(F)c(=O)[nH]1,"cell growth, sulforhodamine B",,GI50,16000 ± 5000 nM
C=CC(=O)N1CCN(c2nc(=O)n(-c3c(C)ccnc3C3CC3)c3nc(-c4ccccc4F)c(Cl)cc23)[C@@H](C)C1,"ERK1/2 phosphorylation, inhibitor, MSD immunoassay, refers to: p-ERK1/2",2 h,IC50,38 nM
Cc1nc(Nc2ncc(C(=O)Nc3c(C)cccc3Cl)s2)cc(N2CCN(CCO)CC2)n1,"cell viability, MTT",mutant KRAS primary,IC50,4850 nM
O=C(/C=C/C=C/C=C/C1CCCCC1)NC1=C[C@@](O)(/C=C/C=C/C=C/C(=O)NC2=C(O)CCC2=O)[C@@H]2O[C@@H]2C1=O,CellTiter-Glo,78 h,GI50,19300 nM
O=C(Nc1cccc2cccnc12)c1cnccn1,"protein induction, Western blot, refers to: WIPI1",72 h,lowest effective concentration,250 nM
Fc1ccc(-n2cc(CCCCN3CCC4(CC3)OCc3ccccc34)c3ccccc32)cc1,"western blot, refers to: GRP78","concentration not given, 24 h",protein level,increased
CN(C)CCN1CCN(CCCN2c3ccccc3Sc3ccc(C(F)(F)F)cc32)CC1,cell viability,72 h,IC50,2300 nM
COc1cccc2c1C(=O)c1c(O)c3c(c(O)c1C2=O)C[C@@](O)(C(=O)CO)C[C@@H]3O[C@H]1C[C@H](N)[C@H](O)[C@H](C)O1,"cytotoxicity, WST-1","72 h, highest tested concentration",Emax,99%
[NH2][Pt]([NH2])([Cl])[Cl],"cell growth, sulforhodamine B",,GI50,1800 ± 500 nM
CNC(=O)c1ccccc1Nc1cc(Nc2ccc(N3CCOCC3)cc2OC)ncc1C(F)(F)F,cellular uptake,"20 µM, 2 h",intracellular concentration,~0.45 pg/cell
O=C(CN1CCC(CN2Cc3ccccc3C2=O)CC1)c1ccc(F)cc1,"western blot, refers to: GRP78","concentration not given, 24 h",protein level,increased
CCn1cc(-c2cc(Cn3ccoc3=N)cc3c2CCN([C@@H](C)c2cc(OC)ccn2)C3=O)c(C(F)(F)F)n1,cell growth,120 h,EC50,238 nM

# Repeated from above:
SMILES,assay,setting,measurement,result
O=C(Nc1cccc2cccnc12)c1cnccn1,"protein induction, Western blot, refers to: WIPI1",72 h,lowest effective concentration,250 nM
Fc1ccc(-n2cc(CCCCN3CCC4(CC3)OCc3ccccc34)c3ccccc32)cc1,"western blot, refers to: GRP78","concentration not given, 24 h",protein level,increased
